Measured values pooled from the literature.
Numbers after ± are the reported error. Converted amounts (≈) assume the structure as drawn.
PGR: Progesterone receptor (PGR, Homo sapiens, UniProt P06401)
T1: miRNA, hairpin closed by GAAA loop (Homo sapiens); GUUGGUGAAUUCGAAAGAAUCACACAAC

| Compound | target | assay | system | setting | how to read | measurement | value |
| --- | --- | --- | --- | --- | --- | --- | --- |
| NC[C@@H](C(=O)Nc1ccc(-c2cn[nH]c2)cc1)c1ccccc1 | ROCK1 (Homo sapiens, UniProt Q13464) | enzyme activity, inhibitor, ATP luminescence |  |  |  | IC90 | 0.0109 mg/L (≈ 0.0356 µM) |
| CCCCCCCCCCCSc1nc2c([nH]1)c(=O)n(C)c(=S)n2C | PGR | reporter gene, antagonist, MMTV-luciferase | T47D/A1-2 | 10 µM, 24 h, with: 5 nM progesterone | reference: maximal activity | remaining activity | 73% |
| CC(C)C(N)C(=O)NC1CCN(C(=O)c2ccc(NC(=O)NC34CC5CC(C)(CC(C)(C5)C3)C4)cc2)CC1 (centres unmarked) | EPHX2 (Homo sapiens, UniProt P34913) |  |  |  |  | lipophilic ligand efficiency | 6.85 |
| O=C(Nc1ccccc1O)c1ccc(-c2ccc(Cl)cc2Cl)o1 | Heat shock protein 90, N-terminal domain (Plasmodium falciparum, UniProt Q8IC05) | binding, SPR |  |  |  | koff | 8.57e-06 s⁻¹ |
| CC(=O)OC1(C(C)=O)CCC2C3C=C(CO)C4=CC(=O)CCC4(C)C3CCC21C (centres unmarked) | PGR | agonist, item: FKBP5 | T47D | 100 nM, 8 h | reference: ethanol vehicle | mRNA fold change | 4.7 ± 0.8 fold change |
| C=C1CN(S(=O)(=O)c2ccc(C)cc2)CCCN(Cc2ccccc2)CCCN(S(=O)(=O)c2ccc(C)cc2)C1 | DnaJ homolog subfamily C member 3 (DNAJC3, Homo sapiens, UniProt Q13217) | SILAC mass spectrometry | SUP-T1, crude membrane fraction | 10 µM, 17 h, forward labelling | reference: DMSO over compound | protein level ratio | 2.16 |
| CCCCOc1ccc(C(=O)OCC[N+]2(C)CC=CCC2)cc1 (centres unmarked) | CHRM2 (Homo sapiens, UniProt P08172) | antagonist, item: inositol phosphates | CHO co-expressing G15 | with: carbachol |  | cooperativity factor | 0.0014 ± 0.0002 |
| CC(C)C[C@H](NC(=O)[C@H](N)Cc1ccc(O)cc1)C(=O)N(C)[C@@H](Cc1ccccc1)C(=O)N[C@@H](CCC(N)=O)C(=O)N1CCC[C@H]1C(=O)N[C@@H](CCC(N)=O)C(=O)N[C@@H](CCCNC(=N)N)C(=O)N[C@@H](Cc1ccccc1)C(N)=O | NPFFR1 (Homo sapiens, UniProt Q9GZQ6) | agonist |  | 10 µM | reference: maximal activation | stimulation | 71% |
| CSc1cc(C)[nH]c(=O)c1CN1CCc2c(Cl)c3c(c(C)c2C1=O)OC(C)(C1CCC(N(C)C)CC1)O3 (centres unmarked) | EZH2 (Homo sapiens, UniProt Q15910) |  |  | activated enzyme |  | kon | 1e+06 M⁻¹ s⁻¹ |
| CC(C)[C@H](NC(=O)[C@H](CCCCN)NC(=O)[C@H](C)NC(=O)[C@H](CCCCN)NC(=O)CNC(=O)[C@H](CS)NC(=O)[C@@H](NC(=O)[C@H](CCCCN)NC(=O)[C@@H](N)CO)[C@@H](C)O)C(=O)N[C@H](C(=O)NCC(=O)N[C@@H](CCCNC(=N)N)C(=O)N[C@@H](Cc1c[nH]c2ccccc12)C(=O)N[C@@H](CCCCN)C(=O)O)[C@@H](C)O | TPM1/ACTA1, with F-actin (Oryctolagus cuniculus, UniProt P58772+P68135) | binding, LSPR |  | pH 7.0, with: F-actin-tropomyosin filaments |  | kon | 3930 ± 249 M⁻¹ s⁻¹ |
| COc1ccc(C2=[N+]3C(=C(CCCCc4cn(C[C@@H]5[C@@H](O)[C@H](O)[C@@H](O)[C@@H]6O[C@H]56)nn4)c4ccc(-c5ccc(OC)cc5)n4[B-]3(F)F)C=C2)cc1 | GBA1 (Homo sapiens, UniProt P04062, R534H) | tryptophan fluorescence |  | pH 7.4, complex with inhibitor |  | emission maximum | 333 nm |
| Clc1ccc2ccc3[n+](c2c1)[Ir-3]12([c]4ccccc4-3)([c]3ccccc3-c3ccc4ccc(Cl)cc4[n+]31)[n+]1ccccc1-c1cccc[n+]12.F[P-](F)(F)(F)(F)F | Cyclin-T1 (CCNT1, Homo sapiens, UniProt O60563) | CETSA | MDA-MB-231 lysate | 3 µM, 30 min |  | thermal stability | no effect |
| N#CCCN1CCN(C(=S)c2ccc(-c3cc(Cl)ccc3Cl)o2)CC1 | NPR2 (Homo sapiens, UniProt P20594) | cGMP production, activator | HEK293 expressing GC-B | with: CNP at EC20 | reference: saturating CNP | Emax | 112% |
| CC[C@@]1(c2cccc(C(F)(F)F)c2)C2=C(Nc3n[nH]cc31)[C@H](F)C(C)(C)CC2=O (single isomer, unassigned) | Glycogen synthase kinase-3 beta (Rattus norvegicus, UniProt P18266) | kinobead chemoproteomics | P10 rat, brain | 60 mg/kg, 3 h post-dose at Cmax |  | target engagement | 40% |
| CN1CCN(CC(=O)N2N=C3/C(=C/c4ccccc4)CCCC3C2c2ccccc2)CC1 (mixture of isomers) | ALOX15 (Homo sapiens, UniProt P16050) | activator |  | 10 µM, with: arachidonic acid substrate |  | rate increase | 67% |
| CCCCCCCCCCCCCCCC(=O)OCC(CSC[C@H](N)C(=O)N[C@@H](CO)C(=O)N[C@@H](CCCCN)C(=O)N[C@@H](CCCCN)C(=O)N[C@@H](CCCCN)C(=O)N[C@@H](CCCCN)C(=O)NCCCCCC(=O)N[C@@H](CCCCN)C(=O)N[C@@H](CC(C)C)C(=O)N[C@H](C(=O)N[C@@H](Cc1ccccc1)C(=O)N[C@@H](Cc1ccccc1)C(=O)N[C@@H](Cc1ccc2ccccc2c1)C(=O)O)C(C)C)OC(=O)CCCCCCCCCCCCCCC (some centres unmarked) | Amyloid-beta precursor protein, fibrillar amyloid-beta (APP, Homo sapiens, UniProt P05067) | fibril disruption, thioflavin T fluorescence |  | 50 µM, preformed fibrils 10 µM |  | half-life | 2 h |
| Cc1nn2c(N3CCN(C)CC3)cc(-c3ccccc3)nc2c1-c1ccccc1 | GTPase KRas, with CRAF (KRAS, Homo sapiens, UniProt P01116, G12D) | FLIM-FRET | BHK cells | 2 µM |  | KRAS G12D-cRaf interaction | no effect |
| CCCC[C@H](C)/C=C(C)/C=C/C(=O)O | TRPA1 (Homo sapiens, UniProt O75762) | ion current, inhibitor, cell-attached single-channel patch clamp | HEK-293T | 5 µM, -60 mV, with: 100 µM AITC | reference: basal | open probability | 17 fold |

| Compound | target | assay | system | setting | how to read | measurement | value |
| --- | --- | --- | --- | --- | --- | --- | --- |
| CC(C)(C)CCN1C[C@@H]2[C@@H](CNC(=O)c3cc(Cl)cc(Cl)c3)[C@@H]2C1.Cl | Voltage-dependent L-type calcium channel subunit alpha-1F (Homo sapiens, UniProt O60840) | calcium current, whole-cell patch clamp | HEK-293T cells | 5 µM, holding potential -90 mV, with: β2 and α2δ subunits |  | Gmax | 0.14 ± 0.053 nS/pF |
| C[N+]1(C)CCCCC1CNC(=O)c1cc(OCC(F)(F)F)ccc1OCC(F)(F)F (centres unmarked) | SCN5A (Homo sapiens, UniProt Q14524) | sodium current, blocker, whole-cell patch clamp |  | 100 µM, internal application |  | use-dependent block | 37.3 ± 1.7% |
| CC(C)[C@H](NC(=O)[C@@H]1CCCN1C(=O)[C@H](C)NC(=O)[C@H](CO)NC(=O)[C@H](C)NC(=O)[C@H](CC(N)=O)NC(=O)[C@H](CCC(=O)O)NC(=O)[C@@H](NC(=O)[C@H](CC(=O)O)NC(=O)[C@H](CCCCN)NC(=O)[C@H](C)NC(=O)[C@H](CCC(N)=O)NC(=O)[C@H](Cc1ccccc1)NC(=O)[C@H](C)NC(=O)[C@H](Cc1c[nH]c2ccccc12)NC(=O)[C@H](C)NC(=O)[C@@H](NC(=O)CN)C(C)C)C(C)C)C(=O)O | PCY1 Saponaria vaccaria | substrate, kinetic ITC |  | 30 °C |  | Km | 0.25 ± 0.01 µM |
| O=C(O)c1ccc(/C=C2\SC(=S)N(Cc3cccc(C(F)(F)F)c3)C2=O)cc1 | NOD2 (Homo sapiens, UniProt Q9HC29) | inhibitor |  | 1 µM |  | ATPase activity | no effect |
| CCCCCC(=O)Nc1ccc(OC)nc1C | Cocaine esterase (CES2, Homo sapiens, UniProt O00748) | substrate |  | 50 µM, pH 8, 37 °C, enzyme purity 4% |  | specific activity | 36 pmol/min/µg |
| C=CC(=O)N1C[C@H](C)N(c2nc(OC[C@@]34CCCN3C[C@H](F)C4)nc3c(F)c(-c4ccc(F)c5sc(N)c(C#N)c45)c(C(F)(F)F)cc23)C[C@H]1C | GTPase KRas, GDP-bound (KRAS, Homo sapiens, UniProt P01116, C118S/G12C) | MALDI-TOF MS |  | 15 min, GDP-loaded |  | covalent modification | 100% |
| CCCCCCCC(=O)Nc1ccc(OC)nc1C | FAAH (Homo sapiens, UniProt O00519) | enzyme activity, substrate |  | 50 µM, pH 8, 37 °C |  | specific activity | 66 pmol/min/µg |
| CC1=C(/C=C/C(C)=C/C=C/C(C)=C/C=O)C(C)(C)CCC1 | CNGA1 (Bos taurus, UniProt Q00194) | ion current, inhibitor, outside-out patch clamp |  | 400 nM, with: cGMP 2 mM |  | time constant of inhibition | 112 min |
| S=C(Nc1ccc(Cl)cc1)Nc1ccc(-c2nc3ccccc3s2)cc1 | Alpha-synuclein (SNCA, Homo sapiens, UniProt P37840) | fibril formation, ThT fluorescence kinetics |  | 100 µM, α-syn 2 µM, plateau phase | reference: DMSO vehicle | maximum ThT fluorescence | 13 ± 1% |
| Cn1c(=O)c2[nH]c(CCc3ccccc3)nc2n(C)c1=O | PGR | reporter gene, antagonist, MMTV-luciferase | T47D/A1-2 | 10 µM, 24 h, with: 5 nM progesterone | reference: maximal activity | remaining activity | 89% |
| CCCCCCCCCCCCCCCC(=O)N[C@@H](CCCCN)C(=O)N[C@@H](CCCCN)C(=O)N[C@@H](CO)C(=O)N[C@@H](CCCNC(=N)N)C(=O)N[C@@H](C)C(=O)N[C@@H](CC(C)C)C(=O)N[C@@H](Cc1ccccc1)C(N)=O | F2R (Homo sapiens, UniProt P25116) | antagonist, light transmission aggregometry | ex vivo human platelets | 0.5 mg/kg, 14 days, with: SFLLRN 20 µM | reference: 24 h value | recovery of platelet aggregation | 61% |
| O=C(NO)c1ccc(Cn2sc3ccccc3c2=O)cc1 | HDAC6 (Homo sapiens, UniProt Q9UBN7) | enzyme activity |  | 50 nM |  | Vmax | 5.9 nM/min/mg |
| Nc1ccc2[nH]c(-c3cccc(-c4nc5cc(N)ccc5[nH]4)c3)nc2c1 | T1, miRNA, hairpin closed by GAAA loop (Homo sapiens) | microscale thermophoresis |  |  |  | Kd | 29 µM |
| Cc1cc(-c2ccc(/N=N/c3ccc4c(S(=O)(=O)O)cc(S(=O)(=O)O)c(N)c4c3O)c(C)c2)ccc1/N=N/c1ccc2c(S(=O)(=O)O)cc(S(=O)(=O)O)c(N)c2c1O | F11 (Homo sapiens, UniProt P03951) | enzyme activity, inhibitor, FXIa chromogenic substrate hydrolysis |  | pH 7.4, 25–37 °C |  | Hill slope | 1.9 ± 0.3 |
| CNc1ccccc1C(=O)O[C@H]1C[C@H](n2cnc3c(N)ncnc32)O[C@@H]1COP(=O)(O)OP(=O)(O)O | Unconventional myosin-Va (Gallus gallus, UniProt Q02440, D297C/G292C/I296C/S293C/V295G) | van't Hoff analysis |  | concentration not given, with: EDTA |  | T∆S of ligand binding | 21.3 ± 9.2 kJ/mol |
| CCCCCCCCCCCCSc1nc2c([nH]1)c(=O)n(C)c(=S)n2C | PGR | reporter gene, antagonist, MMTV-luciferase | T47D/A1-2 | 10 µM, 24 h, with: 5 nM progesterone | reference: maximal activity | remaining activity | 87% |
| N#CCCN1CCN(C(=S)c2cc(-c3cc(Cl)ccc3Cl)no2)CC1 | Atrial natriuretic peptide receptor 2, extracellular domain (NPR2, Homo sapiens, UniProt P20594) | CNP binding, SPR |  | concentration not given |  | binding | no effect |
